# Assay results collected from several papers.
# Compare with care: the assays were run in different laboratories. ± gives the spread as reported.
# KCNH2: Voltage-gated inwardly rectifying potassium channel KCNH2 (KCNH2, Homo sapiens, UniProt Q12809)
# Sequence of UniProt Q12809 (whole entry, looked up): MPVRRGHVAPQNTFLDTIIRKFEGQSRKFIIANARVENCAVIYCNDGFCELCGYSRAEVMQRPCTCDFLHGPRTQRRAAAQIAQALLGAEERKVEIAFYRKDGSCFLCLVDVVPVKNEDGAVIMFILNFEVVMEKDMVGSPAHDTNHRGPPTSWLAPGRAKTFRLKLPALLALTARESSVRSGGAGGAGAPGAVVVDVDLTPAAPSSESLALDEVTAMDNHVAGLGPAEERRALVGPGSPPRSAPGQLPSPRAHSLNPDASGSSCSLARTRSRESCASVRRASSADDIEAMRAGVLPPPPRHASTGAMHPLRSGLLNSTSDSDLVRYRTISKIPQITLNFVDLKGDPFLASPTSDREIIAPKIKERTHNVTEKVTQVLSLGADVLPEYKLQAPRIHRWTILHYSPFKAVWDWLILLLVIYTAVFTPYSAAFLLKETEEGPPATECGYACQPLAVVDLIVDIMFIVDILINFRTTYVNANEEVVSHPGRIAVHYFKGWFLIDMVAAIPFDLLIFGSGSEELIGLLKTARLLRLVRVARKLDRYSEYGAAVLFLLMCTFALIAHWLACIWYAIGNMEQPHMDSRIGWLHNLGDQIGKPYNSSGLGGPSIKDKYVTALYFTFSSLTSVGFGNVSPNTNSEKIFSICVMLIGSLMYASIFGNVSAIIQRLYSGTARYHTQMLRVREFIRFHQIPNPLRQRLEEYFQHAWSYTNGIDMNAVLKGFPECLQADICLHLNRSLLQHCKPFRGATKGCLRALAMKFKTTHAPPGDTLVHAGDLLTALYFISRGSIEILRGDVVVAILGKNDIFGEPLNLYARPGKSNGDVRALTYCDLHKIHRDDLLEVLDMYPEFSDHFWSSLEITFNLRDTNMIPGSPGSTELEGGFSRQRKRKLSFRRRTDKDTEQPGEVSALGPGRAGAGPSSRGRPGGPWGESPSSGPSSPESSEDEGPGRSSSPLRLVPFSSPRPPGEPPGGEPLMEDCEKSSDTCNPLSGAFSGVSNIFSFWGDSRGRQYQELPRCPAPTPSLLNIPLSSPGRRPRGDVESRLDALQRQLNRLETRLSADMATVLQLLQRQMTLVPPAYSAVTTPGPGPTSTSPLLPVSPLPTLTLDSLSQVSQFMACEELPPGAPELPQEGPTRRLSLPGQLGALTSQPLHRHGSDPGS
# Ephx2: Bifunctional epoxide hydrolase 2 (Ephx2, Mus musculus, UniProt P34914)
# Sequence of UniProt P34914 (whole entry, looked up): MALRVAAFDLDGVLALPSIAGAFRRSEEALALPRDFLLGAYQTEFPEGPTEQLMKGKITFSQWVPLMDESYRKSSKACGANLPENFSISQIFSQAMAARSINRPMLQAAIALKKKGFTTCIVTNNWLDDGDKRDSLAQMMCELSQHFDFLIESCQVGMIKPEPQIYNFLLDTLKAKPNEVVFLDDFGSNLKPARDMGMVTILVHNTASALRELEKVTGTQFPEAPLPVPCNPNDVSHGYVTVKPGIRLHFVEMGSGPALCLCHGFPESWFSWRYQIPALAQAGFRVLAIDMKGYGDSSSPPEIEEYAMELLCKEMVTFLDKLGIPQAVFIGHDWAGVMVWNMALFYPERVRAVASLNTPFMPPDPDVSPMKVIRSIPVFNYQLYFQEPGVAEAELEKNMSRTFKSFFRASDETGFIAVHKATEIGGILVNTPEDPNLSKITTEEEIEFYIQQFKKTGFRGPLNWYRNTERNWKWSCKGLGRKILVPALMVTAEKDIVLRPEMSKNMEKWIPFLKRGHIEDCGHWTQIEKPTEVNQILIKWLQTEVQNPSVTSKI
SMILES,tested on,test,test system,setting,how to read,quantity,value
CC(C)C[C@H](NC(=O)[C@H](Cc1ccccc1)NC(=O)CNC(=O)CNC(=O)[C@@H](N)Cc1ccc(O)cc1)C(=O)N[C@@H](CCCN=C(N)N)C(=O)O,bovine brain microvessel endothelial cells,,cell monolayer,"18.6 µM, 4 °C, apical to basolateral",,apparent permeability,11.1 ×10⁻⁶ cm/s
N#Cc1ccc(-c2csc(CNC(=O)C34CC(CN(C(=O)COCCF)C3)C4)n2)cc1,Caco-2,,,,,efflux ratio,6.6
Cc1cc(/C=C/C#N)cc(C)c1Oc1nc(Nc2ccc(C#N)c(F)c2)nc2ccsc12,KCNH2,"ion current, inhibitor",,30 µM,,inhibition,21.6%
COc1ccc(CCCN[C@H](C)Cc2ccccc2)cc1,KCNH2,[3H]dofetilide binding,HEK293 membranes,"60 min, pH 7.4, added: 5 nM [3H]dofetilide",reference: Ki hERG over Ki VMAT2,selectivity ratio,1090
Cn1cc(-c2cccc(N3CCn4c(cc5c4CC(C)(C)C5)C3=O)c2CO)cc(Nc2ccncn2)c1=O,,,human pooled plasma,4 h,,fraction unbound,0.141
Cc1ccccc1S(=O)(=O)Nc1c(N2CCC(NC(=O)Nc3ccc(C#N)cc3Cl)CC2)c(=O)c1=O,Ephx2,,,,,IC50,583 ± 62.6 nM
Cc1ccccc1CN1CCC(C(=O)Nc2ccc(-c3cnc4ccccc4c3)cc2)CC1,,,"sodium phosphate buffer, 1% DMSO",pH 7.4,,solubility,63 to 125 µM
Cc1ccc(S(=O)(=O)Nc2c(N3CCC(NC(=O)Nc4cc(F)cc(F)c4)CC3)c(=O)c2=O)cc1,Ephx2,,,,,IC50,381 ± 35.2 nM
C(#Cc1c[nH]c2nccc(-c3ccncc3)c12)c1cccnc1,,,"C57BL/6 mouse, male","oral, 20 mg/kg",,half-life,2.97 ± 2.13 h
CN1CC[C@]23c4c5ccc(O)c4O[C@H]2C(=O)CC[C@H]3[C@H]1C5,,substrate,human small intestine,"50 µM, 20 min, pH 7.5",,specific activity,40 pmol/min/mg
Cc1ccc(CN2CCC(C(=O)Nc3ccc(-c4cnc5ccccc5c4)cc3)CC2)cc1,,,"sodium phosphate buffer, 1% DMSO",pH 7.4,,solubility,31 to 63 µM
Cc1cc(OCc2nnc(SC3CCCC3)n2-c2cccnc2)ccc1-c1ccc(S(C)(=O)=O)cc1,UO-31,,,,,GI50,1140 nM
O=C(Nc1ccc(-c2ccc3ccccc3n2)cc1)C1CCN(Cc2ccccc2F)CC1,,,"sodium phosphate buffer, 1% DMSO",pH 7.4,,solubility,31 to 63 µM
N#Cc1ccccc1,"nitrilase (Rhodococcus rhodochrous, UniProt A4LA85, Y142V)",ammonia release,,"pH 7.5, 25 °C, 10% methanol",,Km,490 ± 30 µM

# Excerpt of the above:
SMILES,tested on,test,test system,setting,how to read,quantity,value
Cc1ccccc1S(=O)(=O)Nc1c(N2CCC(NC(=O)Nc3ccc(C#N)cc3Cl)CC2)c(=O)c1=O,Ephx2,,,,,IC50,583 ± 62.6 nM
O=C(Nc1ccc(-c2ccc3ccccc3n2)cc1)C1CCN(Cc2ccccc2F)CC1,,,"sodium phosphate buffer, 1% DMSO",pH 7.4,,solubility,31 to 63 µM
